Assay results from different studies.
Compare with care: the assays were run in different laboratories. Numbers after ± are the reported error.
Cell line: Jurkat

Compound = c1ccc(Oc2ccc(Nc3ccc4ncc(OCC5CCNCC5)nc4c3)cc2)cc1; assay = cell growth, XTT; conditions = 7 days; endpoint = EC50; value = 840 ± 120 nM
Compound = Cc1n[nH]c(C)c1CSc1ccc(O)cc1; assay = cytotoxicity; scale = relative to: IC50 HEK293 over IC50 Jurkat; endpoint = selectivity index; value = 1.8
Compound = c1cc(N2CCCCC2)ccc1Nc1cc2ncc(OCC3CCNCC3)nc2cc1-c1ccc(N2CCCCC2)cc1; assay = cell growth, XTT; conditions = 7 days; endpoint = EC50; value = 1400 ± 190 nM
Compound = NC[C@@H](OCC(=O)N1CCC[C@H](C(=O)NCc2nc(-c3ccc(C(F)(F)F)cc3)cs2)C1)c1ccccc1; assay = cytotoxicity; endpoint = EC50; value = ~10000 nM
Compound = c1cc(N2CCCC2)ccc1-c1cc2ncc(OCC3CCNCC3)nc2cc1-c1ccc(N2CCCC2)cc1; assay = cell growth, XTT; conditions = 7 days; endpoint = EC50; value = 18600 ± 600 nM
Compound = [Fe+2].c1cc[cH-]c1.c1cc[cH-]c1; assay = viability, Annexin V-/PI- cells, flow cytometry; conditions = 48 h; endpoint = IC50; value = > 100000 nM
Compound = C=CC(=O)N1CCCN(C(=O)c2cc(Sc3cnc(NC(=O)C4CC4)s3)c(C)cc2OC)C[C@H]1C; assay = IL-2 secretion; conditions = washout after 2 h preincubation, added: TCR stimulation; endpoint = IC50; value = 136 nM
Compound = Cc1n[nH]c(C)c1CSc1ccccc1; assay = cytotoxicity; scale = relative to: IC50 HEK293 over IC50 Jurkat; endpoint = selectivity index; value = 1.5
Compound = Cc1ccc(-c2cc3ccccc3c(N)n2)cc1; assay = annexin V-FITC/PI flow cytometry, item: annexin V+ PI-; conditions = 2.5 µM, 72 h; endpoint = early apoptotic cells; value = 10.5%

A few entries again:
Compound = Cc1ccc(-c2cc3ccccc3c(N)n2)cc1; assay = annexin V-FITC/PI flow cytometry, item: annexin V+ PI-; conditions = 2.5 µM, 72 h; endpoint = early apoptotic cells; value = 10.5%
